Measurements pooled from the literature.
Each numbered part is a random draw from the data of one study; scales do not carry over between parts.

Series 1
Target: Ras GTPase-activating protein-binding protein 1, RRM domain (G3BP1, Homo sapiens, UniProt Q13283)
Sequence of UniProt Q13283 (whole entry, looked up): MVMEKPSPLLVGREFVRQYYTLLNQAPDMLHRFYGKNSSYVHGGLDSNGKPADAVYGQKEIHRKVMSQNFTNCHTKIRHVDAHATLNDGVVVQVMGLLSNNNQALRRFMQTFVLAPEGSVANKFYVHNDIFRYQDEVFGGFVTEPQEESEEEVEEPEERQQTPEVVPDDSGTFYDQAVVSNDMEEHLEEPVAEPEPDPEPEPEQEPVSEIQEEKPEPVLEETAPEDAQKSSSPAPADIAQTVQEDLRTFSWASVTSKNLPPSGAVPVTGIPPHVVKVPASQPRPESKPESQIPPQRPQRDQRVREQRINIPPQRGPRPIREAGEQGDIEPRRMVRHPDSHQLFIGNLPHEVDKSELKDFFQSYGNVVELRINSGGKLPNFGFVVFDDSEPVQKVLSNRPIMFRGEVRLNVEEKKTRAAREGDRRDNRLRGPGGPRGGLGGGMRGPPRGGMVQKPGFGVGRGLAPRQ
Method: RNA Bind-n-Seq
Form: RNA
Matrix: in vitro
Tested at: 1 µM
Notes: whole 134-nt RNA, ends assumed
Added: 150 mM KCl
Reference: input library
Direction: higher = stronger binding
Oligonucleotide	log2 enrichment
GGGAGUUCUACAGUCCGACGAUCCUCAAGUCCUGUGCUACACAUCGUAUGUACCGAAUCGGGUUUGGGUGGGAGGGAAAGUAUUAUGUUACGCCGUUCGGAUCUGCACUUCCAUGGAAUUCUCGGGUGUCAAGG	1.21
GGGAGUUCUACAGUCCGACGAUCAGUCCUGUGCUACACAUCGUAUGUACCGAAUCGGAAAGGAAAAAAAGGUUUUUUUGGAAAGUAUUAUGUUACGCCGUUCGGAUCUGCACUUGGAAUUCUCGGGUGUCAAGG	-0.142
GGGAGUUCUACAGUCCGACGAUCCACAGACAACACGCACCCACACAGACACAGAGGGAAGGGGUUGGGAUGGGGAUAGGGUGCACAGCAGGGCGGGGUAGGACCCCAGCCCCUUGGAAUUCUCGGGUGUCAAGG	0.285
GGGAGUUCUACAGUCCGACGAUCCACAGACAACACGCACCCACACAGACACAGAGGGAAGGGGUUGGGAUGGGGACAGGGUGCACAGCAGGGCGGGGUAGGACCCCAGCCCGUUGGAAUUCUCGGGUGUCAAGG	-0.393
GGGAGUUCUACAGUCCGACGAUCUAACUUUAGAGGAGGAUCUGAUGGAUAUGGCAGUGGACGUGGAUUUGGGGAUGGCUAUAAUGGGUAUGAAGGAGGACCUGGAGGUGGCAAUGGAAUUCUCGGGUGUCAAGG	-0.345
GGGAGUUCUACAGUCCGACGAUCCUGUGCUACACAUCGUAUGUACCGAAUCGGGGUUUUUGGGGAAAAAAAGGGGAAAAAGGGGAAAGUAUUAUGUUACGCCGUUCGGAUCUGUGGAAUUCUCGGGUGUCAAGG	0.757
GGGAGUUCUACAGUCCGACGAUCGCAGGAAGUAAAAACAAAUGGAAAUGCUUCGGAUAGUGGCAGGGGUGGGGGUUGCUAAGGAAUGGGUGGGAUGGGAGUGGGUAAAGAGUUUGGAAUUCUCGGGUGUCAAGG	0.844
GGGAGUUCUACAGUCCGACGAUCCAAGUCCUGUGCUACACAUCGUAUGUACCGAAUCGGUUUUUUUGGAGGAAAAAGGAAAGUAUUAUGUUACGCCGUUCGGAUCUGCACUUCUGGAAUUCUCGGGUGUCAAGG	-0.165
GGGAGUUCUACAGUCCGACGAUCAGUCCUGUGCUACACAUCGUAUGUACCGAAUCGGUUUUUGGAAAAAGGUUUUUUUGGAAAGUAUUAUGUUACGCCGUUCGGAUCUGCACUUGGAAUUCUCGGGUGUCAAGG	-0.404
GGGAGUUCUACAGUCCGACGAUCGAAAUACCAUCGGAAGACGAUGGGACGGUGCUGCUCUCCACGGUUACAGCCCAGUUUCCAGGGGCGUGUGGGCUUCGCUACAGGAAUCCAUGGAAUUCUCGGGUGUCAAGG	-0.259

Series 2
Target: RNA binding protein fox-1 homolog 2, RRM domain, GST-SBP tag (RBFOX2, Homo sapiens, UniProt O43251-10, residues 100-194)
Method: RNA Bind-n-Seq
Form: RNA
Matrix: in vitro
Tested at: 365 nM
Notes: natural RNA segment, single round, ends assumed
Reference: no-protein control
Direction: higher = stronger binding
Residues (chain): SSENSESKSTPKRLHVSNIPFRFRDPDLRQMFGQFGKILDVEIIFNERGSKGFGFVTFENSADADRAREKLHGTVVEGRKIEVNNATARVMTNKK
Oligonucleotide	RBNS enrichment (R)
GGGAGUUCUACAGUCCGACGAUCCCAUUCUGUAGUCUUCAGGGUCAGCUGUUGAUAAAGGGGCAGGCUUGCGUUAUUGGCCUAGAUUUUGCUGCAGAUUAAAUCCUUUGAGGAUUCUCUUCUCUUUUACCAUUUGGAAUUCUCGGGUGCCAA	2.53
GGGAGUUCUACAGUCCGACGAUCAGUUUAAGCAGAAGGGUUUUGUUUCUAUUGUAAGUUAGGUUCUAAAAGUGUAUAAUCUGAUACUCUAGCCCAACUGAAAUAUUAUAUCUUGGGCGUUACAGCCUUUGUCUUGGAAUUCUCGGGUGCCAA	0.306
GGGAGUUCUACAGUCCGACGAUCGAGAAAAAUACCUAAGGCUCAGGCUCACCAGCUCAGCCAAAUCUGCAAGUACCAGACCAGUGAACAGCUCCGGAGGAACAGGUUGUUCUCUGACCUCUACACGUAUGCCAUGGAAUUCUCGGGUGCCAA	0.692
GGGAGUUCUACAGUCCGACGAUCCAUGCACUGGCUGAAGUGGGCAGACUGGAGGCGGCCUCUGCAAGAAAUGGAGUCAGGCGAAGUCCACCUUGUACGCUGCUGUGCGGCUUAGGAAUAAAGUGAAUCUCUUCUGGAAUUCUCGGGUGCCAA	0.381
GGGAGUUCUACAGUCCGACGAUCCCACCCAAUAAGUAACUGUGAGAUGUACCGAAGGGAGUUCUUACCUGAAGAAGGGUGUGAAGGCUGAACAAUCAUGGAUUUUUCUGAUCAAUUGUGCUUUAGGAAAUUAUUGGAAUUCUCGGGUGCCAA	0.441
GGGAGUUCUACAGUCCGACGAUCCACUCUUGCCUUCCCCCAAAAUUUACACUGCUAAAGCCCUCUGUCACUUGGCGACCCUUCUGGUCUUGCUGGAGGGGUUUCCUGGGUAUAACCCAUUGGGCUGCCCAAGGUGGAAUUCUCGGGUGCCAA	0.242
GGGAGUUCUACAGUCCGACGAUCCAAAUGUAGUGUGUUUCCCUAACUUUCUGUUUUUCCUGAGAAAAAAAAAUAAAUCUUUUAUUCAAAUCAGGGUGUGAUAUGGGUCUUUUCUCAUCGACGCCUCUUUUUCCUGGAAUUCUCGGGUGCCAA	0.422
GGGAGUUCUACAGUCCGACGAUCCUGUGUAGCCCUGGCUGUCCUGGAACUCGCUCUGUAGACCAGGCUGGCCUCAAACUUAGAGAUCUGCCUGACUCUGCCUUUGAGGGCUGGGACGAAUGCCACCACUGCCCUGGAAUUCUCGGGUGCCAA	0.311
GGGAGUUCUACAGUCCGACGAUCUGGAGCUGUUUAUGGCAAUUUAAUACCAUUCUCUUUGUAAAGUGAAUAAAUACUCAUCUUUACCCAGCGCGUGUCUCGUGGUGUAUAUAGAGUGCACAGGUGUGUGUUUGUGGAAUUCUCGGGUGCCAA	0.372
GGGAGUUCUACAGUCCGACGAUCGACAUUGUCAAGGAAGAUAUACGUAGAGGAUCUUAACUGACUCACAGGAAGCACUUGUCCCCCCUGGCACGGAAUCCAGAGGGUUCCUCGUCCUUUACCAGUGUCAACCCUGGAAUUCUCGGGUGCCAA	0.58
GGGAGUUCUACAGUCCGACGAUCAUAUUUAAUCAAUUAAAAUGUUUCUCUGUAAGUCGUCGAUGUUUCUGUUAAUACAGUUUCCUGAAGCACUUAAUUGUCUUUCUUCAUUGAGCUAGAGUAAGGAACGCCUUUGGAAUUCUCGGGUGCCAA	0.302
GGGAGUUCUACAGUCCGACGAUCUUUGAUAAGUUGUUGAGAUUCUGUUAUUUGAUAAUAUUCUUCGGCUGUCCAUCCAGCAUCUUAAUCACUUUAAAACUGUGAUUGUUAUUUGCAACUCUGUUCUUUGGAAAUGGAAUUCUCGGGUGCCAA	0.517

Series 3
Target: Sal-like protein 4, full length isoform B (SALL4, Homo sapiens, UniProt Q9UJQ4-2, residues 1-616)
Method: universal PBM
Form: double-stranded DNA, one strand shown
Matrix: in vitro
Tested at: not given
Notes: 8-mer, flanks averaged, mean of replicates
Direction: higher = stronger binding
Oligonucleotide	E-score
ATTATCCA	0.276
ATGATGGG	0.0189
ACCGTATG	0.0511
CCTACTAG	-0.0172
CCCGCACA	-0.228
GGCGTGCA	-0.171
TGATTCCA	-0.0237
GTTGCGGA	-0.154
GGTCAACC	-0.296
CACTGGTA	-0.0157
CTATGCAG	0.0883
CAAGTATG	0.226
ATTACCTA	0.233
GACGACTA	-0.0479
TATGACGA	0.256
CGTTTCCA	0.0475
AGAGCATC	-0.0858

Series 4
Target: RING finger protein unkempt homolog, zinc fingers 1-6, GST-SBP tag (UNK, Homo sapiens, UniProt Q9C0B0, residues 30-357)
Sequence of UniProt Q9C0B0 (30-357, looked up): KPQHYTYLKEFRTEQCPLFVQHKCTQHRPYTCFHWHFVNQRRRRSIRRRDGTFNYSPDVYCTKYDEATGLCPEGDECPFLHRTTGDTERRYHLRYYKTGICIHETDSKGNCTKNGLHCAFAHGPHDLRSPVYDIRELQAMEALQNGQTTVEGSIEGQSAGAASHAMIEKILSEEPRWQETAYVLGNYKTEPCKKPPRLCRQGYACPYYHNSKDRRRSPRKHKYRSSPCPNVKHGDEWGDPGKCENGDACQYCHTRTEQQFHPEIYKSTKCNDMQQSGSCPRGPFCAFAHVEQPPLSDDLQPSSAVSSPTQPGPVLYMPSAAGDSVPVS
Method: RNA Bind-n-Seq
Form: RNA
Matrix: in vitro
Tested at: not given
Notes: RNA with constant flanks, human and mouse sites, ends assumed
Reference: input RNA pool
Direction: higher = stronger binding
Oligonucleotide	bound/input enrichment [ratio]
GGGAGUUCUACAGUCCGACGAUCUCUCCAGAGCAUAAAGAACUAUCUCAUUCUCCCCCAAGGGAGAAUAGCUUUGAGUCAUCUUUAGAGUUUAAAAACUCAGGCCCUGUUUCAGAAGUAAAUACUGGCUUUUCUCCUGAGGUUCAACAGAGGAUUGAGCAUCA	0.172
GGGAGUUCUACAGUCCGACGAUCCCGUAUGAAAUGUGUAGUAGUGGUUUAGUCCAGGCACUUCUUACUGUUCUAAACAAUAGUAUAGAUUUGGAUAUGAAGCAAGAUUGUAGUCAACUGGUAGAAAGAAUAAAUGUCUUCAAACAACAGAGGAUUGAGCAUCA	4.27
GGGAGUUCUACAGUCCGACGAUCGAUGCUGCUUUGGAGGCCACAGAGAAUGAACCACUUAACAAGGAAACAGAAGAAAUGUGUGUGAUGCUUGUCUCUAAUUUGCCUAAUAAAGGAUAUUCUGUAGAAGAAGUUUAUGACUUACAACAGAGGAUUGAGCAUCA	0.512
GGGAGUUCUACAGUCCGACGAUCCUACAAGAUGUUCUGCAGUUGUUCAAGUUCUUUUGUGUUUUGUGGACCUAUGGUUCUAGCCUUUCAAAUCCACUUAACUGCACUGUGAAGUCAGAGCUGCAGACUCAAGCUCUUUACAUACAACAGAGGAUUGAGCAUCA	0.143
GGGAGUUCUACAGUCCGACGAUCUCCUAGAGCCCAGUAGUUUUGACUUGUGUGAUGGGGACACAGUACAGCCUGAAGCUUCUUUUAGUCUCAGCACGGAGGGGCAAUGCCACUGGGUAGGACUUCUACUUCUUGUUUUUCCUCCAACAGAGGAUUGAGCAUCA	0.147
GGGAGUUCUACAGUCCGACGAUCGAAAAGGAAGACAUAAAAAUCACUAAGGAAAGAACUCCAGAAAGUGAAGAAGAAAAUGUAGAAUGGGAAACUAAUAGAGAUGAUUCUGACAAUGGAGAUAUUAAUUAUGAUUAUGUUCAUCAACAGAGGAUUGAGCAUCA	1.23
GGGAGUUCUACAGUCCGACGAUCACUGCGGCUUUUGGAACAGAAAGUUGAGCUUGCGCAGCUGCAAGAAGAAUGGAAUGAACAUAAUGCCAAAAUAAUUAAAUAUAUAAGAACUAAGACAAAGCCCCAUUUGUUUUAUAUUCCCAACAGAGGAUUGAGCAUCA	0.695
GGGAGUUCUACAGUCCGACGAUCGCAGCCUCCAGCCCUGGUUGCCCAGCAGCCCCCACCACCACCUCAGCAACAGCAGCAGCAGCAGCAGCAGCAACAGCAACAGCAGCAGCAACGGGAAGGUGCCAGCCUAGGGCAGGGUCCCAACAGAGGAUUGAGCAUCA	0.165
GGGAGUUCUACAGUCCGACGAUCUGCGCUGUCUGCCCUUCUGGAAACCCAACCUGCCAUCAGCUGUAAAUCAGAUUCUUCACAUUCCAGGUGUAAGCUUUCCCUUCCCUGUGACUCUCAGUCCCUAGCUACAUGGUCAGGGGGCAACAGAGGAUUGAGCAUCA	0.224
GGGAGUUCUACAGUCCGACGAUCUCUGUUAAUCUCAAAGUGUGGCCAACUCCCAUUUACUUAGAGGCUGAUUAUCUAGUUUUGUAGUUCCUCAGGCCUCUAAUUUAUUUUUUGCUUUCUGCUUUAUUGAUCUUUUGCAUGUCCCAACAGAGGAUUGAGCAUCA	0.646
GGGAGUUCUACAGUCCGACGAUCAAAGAAGAGAAAGAAGAUGAAAUUUCAUUAGAAGAUCUAAUUGAGAGAGAGCGUUCUGCCCUAGGUCCAAAUGUUACCAAAAUCACUCUAGAAUCUUUUCUUGCCUGGAAGAAAAGGAAACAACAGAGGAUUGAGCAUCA	0.674

Excerpt of the above (series 3):
Oligonucleotide	E-score
GTTGCGGA	-0.154
TATGACGA	0.256
GACGACTA	-0.0479
CACTGGTA	-0.0157
